Experimental data pooled from the literature.
Every numbered part comes from another study and shows a few of its results, in no order. Substitutions count along the parent as printed.

Set 1 — technique: RNAcompete; molecule type: RNA; sample: in vitro; tested at: 20 nM; notes: 7-mer, probes averaged, single round; reference: mean of 7-mers; reading: higher = stronger binding; measurement: 7-mer Z-score
Target: PABPC1L2, full length, GST fusion (mouse, UniProt A0ABA7IW68)
Residues (chain): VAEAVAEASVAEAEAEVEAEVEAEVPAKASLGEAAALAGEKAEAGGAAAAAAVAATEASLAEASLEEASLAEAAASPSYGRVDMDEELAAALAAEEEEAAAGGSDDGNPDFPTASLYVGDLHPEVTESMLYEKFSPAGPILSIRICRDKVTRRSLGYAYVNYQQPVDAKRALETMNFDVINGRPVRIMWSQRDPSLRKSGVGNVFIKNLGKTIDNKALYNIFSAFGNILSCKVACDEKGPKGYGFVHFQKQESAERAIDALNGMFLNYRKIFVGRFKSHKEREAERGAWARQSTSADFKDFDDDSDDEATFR
Sequence = ACCUAAG; result = -0.148
Sequence = GGACUGU; result = 0.0243
Sequence = CAGGUUC; result = -0.209
Sequence = GGUACCC; result = -0.349
Sequence = GUCUGGG; result = 0.0334
Sequence = UGCUUUA; result = -0.0355
Sequence = CCAGGUU; result = -0.32
Sequence = CACGGAG; result = 0.227

Set 2 — technique: two-hybrid; reference: out of 4 tests; reading: higher = firmer interaction; measurement: positive tests
Partner: ARF22 498-598 (Arabidopsis thaliana, UniProt Q9C8N7)
B1: ARF7 1030-1164 (Arabidopsis thaliana, UniProt P93022); chain PAQTQRMRTYTKVQKRGSVGRSIDVNRYRGYDELRHDLARMFGIEGQLEDPQTSDWKLVYVDHENDILLVGDDPWEEFVNCVQSIKILSSAEVQQMSLDGNFAGVPVTNQACSGGDSGNAWRGHYDDNSATSFNR
B2: ARF16 570-670 (Arabidopsis thaliana, UniProt Q93YR9); chain SPCSKKVHDASGLETGHCKVFMESDDVGRTLDLSVLGSYEELSRKLSDMFGIKKSEMLSSVLYRDASGAIKYAGNEPFSEFLKTARRLTILTEQGSESVVV
B3: ARF4 660-788 (Arabidopsis thaliana, UniProt Q9ZTX9); chain QSSSKRICTKVHKQGSQVGRAIDLSRLNGYDDLLMELERLFNMEGLLRDPEKGWRILYTDSENDMMVVGDDPWHDFCNVVWKIHLYTKEEVENANDDNKSCLEQAALMMEASKSSSVSQPDSSPTITRV
B4: IAA34 (Arabidopsis thaliana, UniProt Q9C5X0); chain MYCSDPPHPLHLVASDKQQKDHKLILSWKKPTMDSDPLGVFPNSPKYHPYYSQTTEFGGVIDLGLSLRTIQHEIYHSSGQRYCSNEGYRRKWGYVKVTMDGLVVGRKVCVLDHGSYSTLAHQLEDMFGMQSVSGLRLFQMESEFCLVYRDEEGLWRNAGDVPWNEFIESVERLRITRRNDAVLPF
B5: IAA28 (Arabidopsis thaliana, UniProt Q9XFM0); chain MEEEKRLELRLAPPCHQFTSNNNINGSKQKSSTKETSFLSNNRVEVAPVVGWPPVRSSRRNLTAQLKEEMKKKESDEEKELYVKINMEGVPIGRKVNLSAYNNYQQLSHAVDQLFSKKDSWDLNRQYTLVYEDTEGDKVLVGDVPWEMFVSTVKRLHVLKTSHAFSLSPRKHGKE
B6: IAA29 (Arabidopsis thaliana, UniProt Q93WC4); chain MELDLGLSLSPHKSSKLGFNFDLNKHCAIEGAASCLGTEKLRFEATFGLGNVEENCYMPKQRLFALNGQPNEEDEDPLESESSIVYDDEEENSEVVGWPPVKTCMIKYGSYHHRHIRNHHHCPYHHRGRRITAMNNNISNPTTATVGSSSSSSISSRSSMYVKVKMDGVAIARKVDIKLFNSYESLTNSLITMFTEYEDCDREDTNYTFTFQGKEGDWLLRGDVTWKIFAESVHRISIIRDRPCAYTRCLF
B7: IAA32 (Arabidopsis thaliana, UniProt Q8RYC6); chain MDPNTPADFFKGSSKFHTYYSQTKKGGGVIDLGLSLRTIQHETYLPPARMIGLDGYGELIDWSQPSYNSITQLKSEDTGHQRLAQGYYNNEGESRGKYAYVKVNLDGLVVGRKVCLVDQGAYATLALQLNDMFGMQTVSGLRLFQTESEFSLVYRDREGIWRNVGDVPWKEFVESVDRMRIARRNDALLPF
B8: IAA19 (Arabidopsis thaliana, UniProt O24409); chain MEKEGLGLEITELRLGLPGRDVAEKMMKKRAFTEMNMTSSGSNSDQCESGVVSSGGDAEKVNDSPAAKSQVVGWPPVCSYRKKNSCKEASTTKVGLGYVKVSMDGVPYLRKMDLGSSQGYDDLAFALDKLFGFRGIGVALKDGDNCEYVTIYEDKDGDWMLAGDVPWGMFLESCKRLRIMKRSDATGFGLQPRGVDE
Construct (chain): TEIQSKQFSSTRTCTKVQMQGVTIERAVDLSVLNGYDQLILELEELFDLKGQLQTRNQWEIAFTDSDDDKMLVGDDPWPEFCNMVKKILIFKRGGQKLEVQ
Sequence = B1 (ARF7 1030-1164); result = 0
Sequence = B2 (ARF16 570-670); result = 0
Sequence = B3 (ARF4 660-788); result = 0
Sequence = B4 (IAA34); result = 4
Sequence = B5 (IAA28); result = 3
Sequence = B6 (IAA29); result = 1
Sequence = B7 (IAA32); result = 4
Sequence = B8 (IAA19); result = 0

Set 3 — target: vanadate, free oxyanion; technique: microfluidic competitive inhibition; sample: in vitro, cell-free expressed; tested at: not given; reading: lower = stronger binding; measurement: oxyanion analog dissociation constant
Notes: derived from inhibition constants, unchanged parent 676 nM
Starting sequence: PafA, mature enzyme, eGFP fusion (Elizabethkingia meningoseptica, UniProt Q9KJX5); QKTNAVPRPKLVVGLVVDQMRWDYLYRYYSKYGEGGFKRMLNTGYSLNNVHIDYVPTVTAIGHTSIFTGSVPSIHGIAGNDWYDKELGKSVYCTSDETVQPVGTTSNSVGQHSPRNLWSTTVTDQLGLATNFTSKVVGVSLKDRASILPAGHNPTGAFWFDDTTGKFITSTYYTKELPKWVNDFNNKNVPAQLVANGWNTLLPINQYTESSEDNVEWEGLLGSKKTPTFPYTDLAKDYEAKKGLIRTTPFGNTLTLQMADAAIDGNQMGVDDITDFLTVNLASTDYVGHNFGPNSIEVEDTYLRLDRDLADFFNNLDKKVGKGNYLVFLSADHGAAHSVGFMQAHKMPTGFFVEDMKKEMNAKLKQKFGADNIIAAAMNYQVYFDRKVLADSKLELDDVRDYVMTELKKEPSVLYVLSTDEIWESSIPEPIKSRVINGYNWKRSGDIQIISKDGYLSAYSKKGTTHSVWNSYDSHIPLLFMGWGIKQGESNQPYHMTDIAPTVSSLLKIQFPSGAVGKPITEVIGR
Substitution = R39G; result = 558 nM
Substitution = K224V; result = 958 nM
Substitution = L506G; result = 1.04 µM
Substitution = D317G; result = 1.26 µM
Substitution = N153V; result = 761 nM

Set 4 — target: CCNE2, cyclin fold, Cln2 fusion (human); technique: yeast growth competition, sequencing; sample: yeast; notes: weak parent motif; reference: not given; reading: higher = stronger binding; measurement: normalised enrichment score; starting sequence: viral docking peptide; PTARRRLLHDLDT
Substitution = PTARRRALHDLDT [L7A]; result = 0.189
Substitution = PTARKRLLHDLDT [R5K]; result = 0.0849
Substitution = PTARKRLLFDLDT [R5K H9F]; result = 2.19
Substitution = PTARRRLLADLDT [H9A]; result = 1.44
Substitution = PTARARLLHDLDT [R5A]; result = 0.428
Substitution = PTARRRLLHALDT [D10A]; result = 0.668
Substitution = PTARRRLLFDLDT [H9F]; result = 4.97
Substitution = ATARRRLLHDLDT [P1A]; result = 0.518
Substitution = PTARRRLLHDLAT [D12A]; result = 0.516

For quick reference, copied from above (set 3):
Substitution = R39G; result = 558 nM
Substitution = K224V; result = 958 nM
Substitution = L506G; result = 1.04 µM
